Experimental data collected from several papers.
Numbers after ± are the reported error. In brackets after ≈: the same amount, converted by molar mass.

SMILES | organism | test | test system | setting | how to read | endpoint | value
Cc1cccc(-c2cn([C@@H]3O[C@H](CO)[C@@H](O)[C@H]3O)c3ncnc(N)c23)c1 | Trichomonas vaginalis | resorufin | G3, metronidazole-sensitive | 24 h + 2 h, 2% O2 |  | EC50 | 0.77 ± 0.019 µM
CCCOC(=O)N1c2cc(CNC)ccc2[C@H](NC(=O)C(=O)Nc2ccc(Cl)c(F)c2)[C@H]1CNC(=N)N | amphotropic murine leukemia virus | viral infection | Cf2Th-CD4/CCR5 |  |  | IC50 | > 300 µM
Cc1ccc2nc(-c3ccc(F)c(F)c3)c(CN3CCN(c4ccc(F)cc4)CC3)n2c1 | Trypanosoma cruzi |  | 3T3 host cells, Tulahuen beta-galactosidase | 6 days |  | EC50 | 1 µM
CN(C)c1cc(CN2CCCC2)c(O)c2c1C[C@H]1C[C@H]3[C@H](N(C)C)C(O)=C(C(N)=O)C(=O)[C@@]3(O)C(O)=C1C2=O | Streptococcus pneumoniae | microbial growth, broth dilution |  |  |  | MIC | 0.25 µg/mL (≈ 0.462 µM)
CCCCCc1ccc2c(c1O)C(c1ccc(OC)c(OC)c1)OC2=O (stereo not shown) | Naegleria fowleri | parasite growth, resazurin | ATCC30808 | 48 h |  | IC50 | 19.9 µM
Brc1ccc(-c2c[nH]c(-c3ccccn3)n2)cc1 | Schistosoma mansoni |  | female worms | 25 µM |  | worm killing | 0%
C=C(C)[C@@H]1CC[C@]2(CO)CC[C@]3(C)[C@H](CC[C@@H]4[C@@]5(C)CCCNC(C)(C)[C@@H]5CC[C@]43C)[C@@H]12 | Human cytomegalovirus | cytopathic effect | HFF, AD169 |  |  | EC90 | > 6 µM
CN(C)c1cc(CNCCC(C)(C)C)c(O)c2c1C[C@H]1C[C@H]3[C@H](N(C)C)C(O)=C(C(N)=O)C(=O)[C@@]3(O)C(O)=C1C2=O | Streptococcus pneumoniae |  | 157E | with: mouse serum | baseline: no serum | MIC increase | ≥ 2 dilutions
CCOC(=O)c1c(C(C)C)oc2nc(N3CCN(c4ccccc4)CC3)ccc12 | Trypanosoma cruzi |  | 3T3 host cells, Tulahuen beta-galactosidase | 6 days |  | EC50 | 11 µM
CC[C@H](C)[C@H](NC(=O)[C@H](CCCCN)NC(=O)[C@H](CC(N)=O)NC(=O)[C@H](CC(C)C)NC(=O)[C@H](Cc1ccccc1)NC(=O)[C@H](CCCCN)NC(=O)[C@H](CCCCNC(=N)N)NC(=O)[C@H](CC(C)C)NC(=O)[C@H](CC(C)C)NC(=O)[C@H](CCCCN)NC(=O)[C@H](CCCCNC(=N)N)NC(=O)[C@H](CC(C)C)NC(=O)CNC(C)=O)C(=O)N[C@@H](CCCCN)C(=O)N[C@@H](CCCCNC(=N)N)C(N)=O | Gram-negative bacteria |  |  |  |  | geometric mean MIC | 4.42 µM
Cc1ccc(OCCn2c(=S)[nH]c3ccccc32)c(C(C)C)c1 | Saccharomyces cerevisiae | reporter gene, item: Rlm1-lacZ |  | up to 20 µM, with: Calcofluor white |  | inhibition | inhibited
CN(Cc1cc(N(C)C)c2c(c1O)C(=O)C1=C(O)[C@]3(O)C(=O)C(C(N)=O)=C(O)[C@@H](N(C)C)[C@@H]3C[C@@H]1C2)CC(C)(C)C | Streptococcus pneumoniae |  | 157E | 50% mouse serum |  | MIC | 0.25 µg/mL (≈ 0.438 µM)
C[C@@H](c1ccn(Cc2ccc(Cl)cc2)n1)[C@](O)(Cn1cnnn1)c1ccc(F)cc1F | Candida tropicalis | growth, broth microdilution | 2718 | 24 h, 30 °C, ≥50% inhibition |  | MIC | < 0.008 µg/mL
CC1(CCCCCCCCCCCCCCOCCCOP(=O)(O)CO[C@H](CO)Cn2ccc(N)nc2=O)COC1 | JC polyomavirus | qPCR | COS-7, MAD-4 |  | baseline: CC50 over EC50 | selectivity index | 1
COc1ccc(-n2nc3c(=O)n(Cc4cccc(NC(=O)c5ccccc5)c4)nc(C)c3c2C)cc1 | Zika virus |  | Vero, MR766 |  | baseline: CC50 over EC50 | selectivity index | > 3.3
Oc1ccccc1/C=N/NC(=S)Nc1cccc(F)c1 | Candida tropicalis | broth microdilution | 2718 |  | baseline: hit compound | MIC fold improvement | 2 fold
